Measured values of several laboratories.
Each line is one published result; not all experiments were run side by side. “And” joins repeats or separate records; there may be more than shown. Numbers after ± are the reported error.
Sequence of UniProt P20813 (whole entry, looked up): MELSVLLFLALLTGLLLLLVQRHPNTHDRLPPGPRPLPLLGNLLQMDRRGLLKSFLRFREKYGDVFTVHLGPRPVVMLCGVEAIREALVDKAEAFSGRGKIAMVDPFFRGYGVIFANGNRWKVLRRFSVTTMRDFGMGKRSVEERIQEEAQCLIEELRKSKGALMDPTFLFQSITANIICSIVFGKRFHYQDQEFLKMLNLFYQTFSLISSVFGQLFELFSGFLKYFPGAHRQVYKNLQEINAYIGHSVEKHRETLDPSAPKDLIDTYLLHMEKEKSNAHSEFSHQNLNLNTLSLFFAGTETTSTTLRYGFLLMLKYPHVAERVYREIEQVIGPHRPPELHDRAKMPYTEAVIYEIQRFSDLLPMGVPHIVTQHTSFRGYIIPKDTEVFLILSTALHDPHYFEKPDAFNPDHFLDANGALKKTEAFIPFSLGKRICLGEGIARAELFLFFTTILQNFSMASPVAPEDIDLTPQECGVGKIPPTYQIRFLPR
Sequence of UniProt P22309 (whole entry, looked up): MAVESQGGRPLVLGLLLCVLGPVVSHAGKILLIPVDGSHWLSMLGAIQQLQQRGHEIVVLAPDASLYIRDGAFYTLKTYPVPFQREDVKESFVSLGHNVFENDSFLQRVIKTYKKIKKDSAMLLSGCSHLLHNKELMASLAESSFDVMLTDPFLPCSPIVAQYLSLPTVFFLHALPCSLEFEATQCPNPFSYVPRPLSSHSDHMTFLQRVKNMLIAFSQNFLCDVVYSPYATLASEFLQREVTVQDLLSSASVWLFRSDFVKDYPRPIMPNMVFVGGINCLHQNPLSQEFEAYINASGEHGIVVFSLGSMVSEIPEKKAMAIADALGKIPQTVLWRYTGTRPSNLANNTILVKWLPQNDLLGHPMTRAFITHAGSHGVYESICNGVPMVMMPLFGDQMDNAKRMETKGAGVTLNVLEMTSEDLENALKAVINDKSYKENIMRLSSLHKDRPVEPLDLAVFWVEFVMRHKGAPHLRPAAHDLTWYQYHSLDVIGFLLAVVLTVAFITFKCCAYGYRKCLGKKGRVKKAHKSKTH

`Cc1cc(C(=O)NC(C)(C)COc2cccc3c2C(N)=NS(=O)(=O)N3)cc(C)n1` has a revertant ratio of 1 (Salmonella typhimurium; Ames test, confirmatory; TA98; 333 µg/plate, added: rat liver S9; relative to: solvent control).
`[Cl-].[Cl-].[Pt+2].[Ru+2].c1ccc(-c2nccnc2-c2ccccn2)nc1.c1cnc2c(c1)ccc1cccnc12.c1cnc2c(c1)ccc1cccnc12` has a hatching rate of 0% (Danio rerio; embryos; 90 µM, 48 h).
With `C=CCN1CC[C@]23c4c5ccc(O)c4O[C@H]2C(=O)CC[C@@]3(O)[C@H]1C5` the viability was 99% (MCF7; MTT; 100 µM, 72 h, 10% FBS).
For `COc1cccc(-c2n[nH]c(SCc3ccccn3)n2)c1OC`, “revertant colonies per plate” read 12 (Salmonella typhimurium; Ames test, plate incorporation; TA1535; 0.50 mg/plate, without S9).
`CC1(C)[C@H](C(=O)OCc2cccc(Oc3ccccc3)c2)[C@@H]1C=C(Cl)Cl` — result for “relative enzyme contribution”: 52.6% (human microsomal CES1; IVIVE from expressed enzymes; human, 6 months old, expressed human CES1; 0.1 µM; relative to: total hepatic CLint in vivo).
With `Cc1ncc2n1-c1ccc(Cl)cc1C(c1ccccc1F)=NC2` the AUC(0-inf) was 0.042 ± 0.00585 µM·h (wild-type mice, plasma; intravenous, 0.3 mg/kg, added: 3-day PB, BC 500 mg/kg and PCN 10 mg/kg).
For `[Cl-].[Cl-].[Pt+2].[Ru+2].c1ccc(-c2nc3cc4ccccc4cc3nc2-c2ccccn2)nc1.c1cnc2c(c1)ccc1cccnc12.c1cnc2c(c1)ccc1cccnc12`, the survival rate was 70 ± 5.1% (Danio rerio; embryos; 90 µM, 24 h).
Under “probability of response”, `O=c1ccc2ccccc2o1` is recorded as 33.2% (HepaRG 3D spheroids; cellular ATP, high-content screening; concentration not given, 24 h, 10% FBS medium).
`CNC1(c2ccccc2Cl)CCCCC1=O` (racemic) gave an inhibition of 3% (UDP-glucuronosyltransferase 1A1 (UGT1A1, Homo sapiens, UniProt P22309); enzyme activity; 30 µM).
Under “enzyme contribution to CLint”, `CC1(C)C(/C=C(\Cl)C(F)(F)F)C1C(=O)OC(C#N)c1cccc(Oc2ccccc2)c1` (stereo not shown) is recorded as 0.02% (human cytosolic CES2; IVIVE from expressed enzymes; human, liver, in vivo scaled; age-specific).
`CC(=O)OC[C@H]1O[C@@H](Oc2cc(O)cc3cc4oc(C)cc(=O)c4c(O)c23)[C@H](O)[C@@H](O)[C@@H]1O` gave a cell viability of 142 ± 21.1% (HK-2 co-cultured with HepaRG; MTT; 266.67 µM, 24 h; relative to: untreated control).
The concentration of `CN/C(=N\[N+](=O)[O-])NCc1cnc(Cl)s1` is reported as 1.7 mg/kg dry soil (soil; 56 days, nominal 3.3).
For `O=C1c2ccccc2C(=O)c2ccccc21`, the viability was 119 ± 12.6% (HK-2 co-cultured with HepaRG; MTT; 16.67 µM, 24 h; relative to: untreated control).
`COc1ncnn2ccc(-c3cnc4nc(C)n(Cc5nnc([C@@H](C)F)o5)c4c3)c12` — result for “patients with dehydration”: 0% (human; oral, dose not given, grade 5).
The viability of `CCOC(=O)c1c(NC(=O)CNC(C)C)sc2c1CCCCC2` is reported as 98.5 ± 1% (HEK293; CellTiter-Blue; 50 µM).
`CC(=O)N1CCC(C(=O)N2CCN3C(=O)c4cc(-c5ccccc5)ccc4NC(=O)C3C2)CC1` (stereo not shown): “revertants per plate” 118 (Salmonella typhimurium; TA100; 15.8 µg/plate, added: rat liver S9).
With `COc1cc2ncnc(Nc3cccc(Cl)c3)c2cc1OC` the viability was 94% and 92.4% and 94.3% (HaCaT; 3.704 µM, 60 h).
The cell viability of `COc1ccc2c(c1OC)C(=O)c1c(cc(C)c(O)c1OC)C2=O` is reported as 38.4 ± 2.24% (HK-2 co-cultured with HepaRG; MTT; 266.67 µM, 48 h; relative to: untreated control).
The induction factor of `O=[N+]([O-])c1ccc(N2CCN(CCC(O)c3ccc(F)cc3)CC2)c(C(F)(F)F)c1` (stereo not shown) is reported as 0.6 (Salmonella typhimurium; genotoxicity, SOS/umu test; TA1535/pSK1002; 0.063 mg/mL, 4 h, with S9, lower range).
With `Cc1cc2c(c(O)c1O)C(=O)c1c(O)cc(O)cc1C2=O` the cell viability was 99.2 ± 12.3% (HK-2 co-cultured with HepaRG; MTT; 33.33 µM, 24 h; relative to: untreated control).
The survival of `OC(CCN1CC=C(c2ccc(F)cc2)CC1)c1ccc(F)c2ccccc12` (stereo not shown) is reported as 88.1% (Salmonella typhimurium; SOS/umu test; TA1535/pSK1002; 0.016 mg/mL, 4 h, with S9, full range).
`CC(C)CC(=O)OC[C@H]1O[C@@](C#N)(c2ccc3c(N)ncnn23)[C@H](O)[C@@H]1O` has an intrinsic clearance of 0 µL/min/pmol (Cytochrome P450 2B6 (CYP2B6, Homo sapiens, UniProt P20813); metabolic stability; recombinant enzyme; 1 µM).

Repeated from above:
For `COc1cccc(-c2n[nH]c(SCc3ccccn3)n2)c1OC`, “revertant colonies per plate” read 12 (Salmonella typhimurium; Ames test, plate incorporation; TA1535; 0.50 mg/plate, without S9).
Under “enzyme contribution to CLint”, `CC1(C)C(/C=C(\Cl)C(F)(F)F)C1C(=O)OC(C#N)c1cccc(Oc2ccccc2)c1` (stereo not shown) is recorded as 0.02% (human cytosolic CES2; IVIVE from expressed enzymes; human, liver, in vivo scaled; age-specific).
